Published values pooled from the literature.
Protocols differ between the studies behind these lines. “And” joins repeats or separate records; there may be more than shown. Numbers after ± are the reported error. Converted amounts (≈) assume the structure as drawn.
ESR1: Estrogen receptor (ESR1, Homo sapiens, UniProt P03372)
Sequence of UniProt P03372 (whole entry, looked up): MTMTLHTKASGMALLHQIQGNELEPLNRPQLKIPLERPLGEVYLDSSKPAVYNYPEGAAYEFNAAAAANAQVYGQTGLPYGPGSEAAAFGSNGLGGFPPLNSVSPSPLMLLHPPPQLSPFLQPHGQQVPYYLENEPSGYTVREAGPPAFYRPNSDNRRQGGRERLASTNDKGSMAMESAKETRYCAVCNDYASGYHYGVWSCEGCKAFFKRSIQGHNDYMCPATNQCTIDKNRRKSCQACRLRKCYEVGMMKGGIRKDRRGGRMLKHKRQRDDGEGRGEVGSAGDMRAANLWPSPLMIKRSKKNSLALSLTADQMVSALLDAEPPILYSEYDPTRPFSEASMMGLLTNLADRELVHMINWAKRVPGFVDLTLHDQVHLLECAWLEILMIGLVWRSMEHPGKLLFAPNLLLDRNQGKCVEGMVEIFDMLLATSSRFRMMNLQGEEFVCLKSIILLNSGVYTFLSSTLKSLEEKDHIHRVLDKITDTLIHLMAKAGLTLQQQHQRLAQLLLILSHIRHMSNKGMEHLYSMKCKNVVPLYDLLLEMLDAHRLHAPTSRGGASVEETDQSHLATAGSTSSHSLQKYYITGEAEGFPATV
CALM1 Ca2+-bound C-lobe: Calmodulin-1, Ca2+-bound C-lobe (CALM1, Homo sapiens, UniProt P0DP23)
WD repeat-containing protein 91 WD40 domain, residues 392–747: WD repeat-containing protein 91, WD40 domain, residues 392–747 (Homo sapiens, UniProt A4D1P6)
Sequence of UniProt A4D1P6 (whole entry, looked up): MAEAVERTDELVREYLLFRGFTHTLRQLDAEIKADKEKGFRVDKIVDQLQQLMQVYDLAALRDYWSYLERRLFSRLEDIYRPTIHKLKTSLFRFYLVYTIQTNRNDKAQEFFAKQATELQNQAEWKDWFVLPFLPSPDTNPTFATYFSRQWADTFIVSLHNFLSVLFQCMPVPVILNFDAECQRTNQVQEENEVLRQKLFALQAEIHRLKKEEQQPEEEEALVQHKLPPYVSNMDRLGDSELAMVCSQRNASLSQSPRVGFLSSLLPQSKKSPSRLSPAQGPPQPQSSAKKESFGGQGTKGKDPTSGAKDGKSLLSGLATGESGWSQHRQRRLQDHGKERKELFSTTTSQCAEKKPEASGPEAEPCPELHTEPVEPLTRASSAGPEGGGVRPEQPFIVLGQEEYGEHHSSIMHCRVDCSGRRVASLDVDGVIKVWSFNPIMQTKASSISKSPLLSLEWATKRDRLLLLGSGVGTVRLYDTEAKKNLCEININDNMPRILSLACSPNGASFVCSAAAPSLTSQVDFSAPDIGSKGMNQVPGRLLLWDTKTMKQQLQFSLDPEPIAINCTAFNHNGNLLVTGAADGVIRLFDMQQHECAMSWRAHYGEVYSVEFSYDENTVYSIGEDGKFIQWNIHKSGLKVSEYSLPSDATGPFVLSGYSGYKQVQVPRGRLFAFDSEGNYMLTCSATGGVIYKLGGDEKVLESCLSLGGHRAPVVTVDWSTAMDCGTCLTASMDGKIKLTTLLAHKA
Genome polyprotein NS3 helicase domain: Genome polyprotein, NS3 helicase domain (Hepatitis C virus genotype 1b, UniProt Q9WMX2)
T1: ssDNA, aptamer; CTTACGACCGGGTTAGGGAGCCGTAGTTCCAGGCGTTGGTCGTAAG
Sequence of UniProt P51575 (whole entry, unmodified, looked up): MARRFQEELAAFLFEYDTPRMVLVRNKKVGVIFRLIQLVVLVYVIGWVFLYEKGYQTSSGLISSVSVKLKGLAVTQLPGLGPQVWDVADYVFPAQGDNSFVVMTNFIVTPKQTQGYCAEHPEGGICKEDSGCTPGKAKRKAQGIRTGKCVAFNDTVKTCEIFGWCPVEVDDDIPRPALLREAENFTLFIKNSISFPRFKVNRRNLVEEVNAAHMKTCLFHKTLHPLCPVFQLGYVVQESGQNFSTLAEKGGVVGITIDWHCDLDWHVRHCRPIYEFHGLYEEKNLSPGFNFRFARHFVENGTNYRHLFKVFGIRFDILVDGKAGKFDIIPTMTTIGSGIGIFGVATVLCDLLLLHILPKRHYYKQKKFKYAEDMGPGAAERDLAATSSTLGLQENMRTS
Sequence of UniProt Q14524 (whole entry, looked up): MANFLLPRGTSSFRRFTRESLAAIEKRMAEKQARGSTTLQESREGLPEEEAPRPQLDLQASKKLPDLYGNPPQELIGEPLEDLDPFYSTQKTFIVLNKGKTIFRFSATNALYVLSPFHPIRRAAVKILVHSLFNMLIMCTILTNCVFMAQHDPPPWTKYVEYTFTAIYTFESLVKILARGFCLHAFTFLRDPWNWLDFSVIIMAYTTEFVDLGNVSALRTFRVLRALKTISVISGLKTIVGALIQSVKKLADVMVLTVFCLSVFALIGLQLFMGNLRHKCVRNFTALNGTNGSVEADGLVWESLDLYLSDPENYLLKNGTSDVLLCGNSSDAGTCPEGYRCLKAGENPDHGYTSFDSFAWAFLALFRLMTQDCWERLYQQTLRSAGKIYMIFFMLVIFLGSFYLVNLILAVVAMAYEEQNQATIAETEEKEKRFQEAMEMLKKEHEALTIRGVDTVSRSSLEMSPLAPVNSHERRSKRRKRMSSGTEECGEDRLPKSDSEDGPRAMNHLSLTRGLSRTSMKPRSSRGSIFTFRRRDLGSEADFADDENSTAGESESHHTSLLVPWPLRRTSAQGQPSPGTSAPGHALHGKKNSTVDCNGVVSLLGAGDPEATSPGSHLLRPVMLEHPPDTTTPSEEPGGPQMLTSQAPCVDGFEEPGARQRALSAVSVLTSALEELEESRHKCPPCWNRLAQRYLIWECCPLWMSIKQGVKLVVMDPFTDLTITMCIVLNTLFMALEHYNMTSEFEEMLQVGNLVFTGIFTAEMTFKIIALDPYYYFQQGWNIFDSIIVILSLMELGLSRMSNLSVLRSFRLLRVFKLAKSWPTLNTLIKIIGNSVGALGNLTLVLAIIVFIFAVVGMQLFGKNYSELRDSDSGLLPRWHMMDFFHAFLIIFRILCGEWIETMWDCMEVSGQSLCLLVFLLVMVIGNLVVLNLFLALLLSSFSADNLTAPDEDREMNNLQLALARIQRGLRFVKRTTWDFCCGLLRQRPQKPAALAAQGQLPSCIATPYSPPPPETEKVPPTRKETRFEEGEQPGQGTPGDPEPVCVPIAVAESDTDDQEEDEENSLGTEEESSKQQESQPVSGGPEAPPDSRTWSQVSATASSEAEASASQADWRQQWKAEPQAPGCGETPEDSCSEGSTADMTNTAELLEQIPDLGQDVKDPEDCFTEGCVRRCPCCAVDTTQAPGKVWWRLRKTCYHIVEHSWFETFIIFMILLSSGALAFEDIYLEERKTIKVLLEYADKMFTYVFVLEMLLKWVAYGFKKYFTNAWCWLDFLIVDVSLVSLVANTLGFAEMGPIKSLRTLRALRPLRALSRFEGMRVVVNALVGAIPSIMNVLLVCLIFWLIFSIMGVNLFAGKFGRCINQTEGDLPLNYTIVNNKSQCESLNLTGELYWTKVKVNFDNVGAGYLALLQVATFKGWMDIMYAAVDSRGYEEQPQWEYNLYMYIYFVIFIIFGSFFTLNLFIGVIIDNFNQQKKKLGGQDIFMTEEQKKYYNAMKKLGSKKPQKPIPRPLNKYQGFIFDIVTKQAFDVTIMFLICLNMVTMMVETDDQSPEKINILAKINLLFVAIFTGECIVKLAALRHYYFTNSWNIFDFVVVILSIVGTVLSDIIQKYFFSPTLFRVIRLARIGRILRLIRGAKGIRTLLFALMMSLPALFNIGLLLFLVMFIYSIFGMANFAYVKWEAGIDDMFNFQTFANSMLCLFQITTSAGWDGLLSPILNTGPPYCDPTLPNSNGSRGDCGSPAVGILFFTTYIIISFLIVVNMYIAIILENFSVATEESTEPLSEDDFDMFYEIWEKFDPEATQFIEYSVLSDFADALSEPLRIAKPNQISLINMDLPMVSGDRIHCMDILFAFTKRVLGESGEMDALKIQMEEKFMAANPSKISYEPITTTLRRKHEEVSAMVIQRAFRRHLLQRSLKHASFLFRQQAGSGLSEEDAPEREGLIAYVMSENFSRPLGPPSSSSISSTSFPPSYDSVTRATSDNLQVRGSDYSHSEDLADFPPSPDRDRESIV
Sequence of UniProt P22413 (whole entry, looked up): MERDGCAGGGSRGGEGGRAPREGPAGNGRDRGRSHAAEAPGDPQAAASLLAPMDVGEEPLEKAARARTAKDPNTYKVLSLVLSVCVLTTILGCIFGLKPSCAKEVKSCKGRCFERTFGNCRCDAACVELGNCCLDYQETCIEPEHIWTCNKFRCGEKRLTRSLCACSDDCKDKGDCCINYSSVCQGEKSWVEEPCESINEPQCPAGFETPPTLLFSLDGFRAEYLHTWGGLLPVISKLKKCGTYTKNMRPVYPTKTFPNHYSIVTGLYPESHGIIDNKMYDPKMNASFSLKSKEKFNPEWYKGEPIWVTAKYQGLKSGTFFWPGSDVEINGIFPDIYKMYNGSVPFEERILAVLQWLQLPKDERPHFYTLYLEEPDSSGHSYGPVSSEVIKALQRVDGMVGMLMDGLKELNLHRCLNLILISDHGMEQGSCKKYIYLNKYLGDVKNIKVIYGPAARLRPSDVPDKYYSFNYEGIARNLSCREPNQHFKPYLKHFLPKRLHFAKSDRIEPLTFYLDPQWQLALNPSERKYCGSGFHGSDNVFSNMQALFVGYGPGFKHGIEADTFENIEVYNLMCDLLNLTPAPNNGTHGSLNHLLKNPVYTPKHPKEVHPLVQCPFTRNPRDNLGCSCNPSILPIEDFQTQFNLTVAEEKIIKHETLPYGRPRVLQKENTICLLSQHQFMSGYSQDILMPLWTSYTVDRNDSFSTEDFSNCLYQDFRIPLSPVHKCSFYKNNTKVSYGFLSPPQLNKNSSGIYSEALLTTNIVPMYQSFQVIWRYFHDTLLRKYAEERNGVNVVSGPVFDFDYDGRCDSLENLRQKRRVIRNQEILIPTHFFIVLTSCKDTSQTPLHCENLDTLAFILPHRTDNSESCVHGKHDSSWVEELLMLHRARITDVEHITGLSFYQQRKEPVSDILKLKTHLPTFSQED
Sequence of UniProt Q93015 (whole entry, looked up): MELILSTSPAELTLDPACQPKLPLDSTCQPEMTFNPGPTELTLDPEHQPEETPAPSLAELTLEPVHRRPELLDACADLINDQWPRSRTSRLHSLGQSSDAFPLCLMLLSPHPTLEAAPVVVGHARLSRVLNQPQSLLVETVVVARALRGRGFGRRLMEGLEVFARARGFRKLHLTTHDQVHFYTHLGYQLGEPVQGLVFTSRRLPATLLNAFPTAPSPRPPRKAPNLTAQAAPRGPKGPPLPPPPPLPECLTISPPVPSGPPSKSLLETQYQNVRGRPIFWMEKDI

O=C1CC[C@H](N2Cc3c(ccc4c3OCC43CCN(C[C@@H]4CCC5(CCN(c6ccc([C@@H]7c8ccc(O)cc8CC[C@@H]7c7ccccc7)cc6)CC5)OC4)CC3)C2=O)C(=O)N1  lowest concentration reducing ER (ESR1; degrader, Western blot; MCF7; 4 h): 0.3 nM
CC(=O)N(CC#Cc1cccc(C(N)=O)c1)C[C@H]1C[C@@H](n2ccc3c(Cl)ncnc32)[C@H](O)[C@@H]1O  Tagg shift (7SK snRNA methylphosphate capping enzyme (MEPCE, Homo sapiens, UniProt Q7L2J0); cellular thermal shift; HeLa cell lysate; 50 µM; reference: DMSO): > 1 °C
Nc1c(Br)cc(Br)cc1CN[C@H]1CC[C@H](O)CC1  potentiation (Glutamate receptor 2 (Homo sapiens, UniProt P42262); ion current, positive allosteric modulator, SyncroPatch patch clamp; HEK293; 3 µM): 92%
Nc1ncnc2c1ncn2[C@@H]1O[C@H](COP(=O)(O)OP(=O)(O)OP(=O)(O)O)[C@@H](O)[C@H]1O  Kd (T1, ssDNA, aptamer; ITC): 721 nM
COc1cccc2c(N3CCC(CCP(=O)(O)O)CC3)ncnc12  IC95 (Ectonucleotide pyrophosphatase/phosphodiesterase family member 1 (ENPP1, Homo sapiens, UniProt P22413); inhibitor): 0.014 µg/mL (≈ 0.0398 µM)
O=C(COC(=O)c1cccc(N2C(=O)C3C4c5ccccc5C(c5ccccc54)C3C2=O)c1)c1ccc(Cl)cc1 (centres unmarked)  activity class (Nuclear receptor ROR-gamma (RORC, Homo sapiens, UniProt P51449); cell-based; concentration not given): active
Cc1ccccc1C1CC(=O)c2c(C)nc(N)nc2C1 (centres unmarked)  fold enrichment (WD repeat-containing protein 91 (Homo sapiens, UniProt A4D1P6); binding, affinity selection mass spectrometry; reference: other proteins in batch): 0.895
CC[C@H](C)[C@H](NC(=O)[C@H](CCCCN)NC(=O)CNC(=O)[C@@H](NC(=O)[C@@H](NC(=O)[C@H](CCSC)NC(=O)[C@H](Cc1c[nH]cn1)NC(=O)CN)[C@@H](C)O)C(C)C)C(=O)N[C@@H](Cc1ccc(O)cc1)C(=O)N[C@@H](C)C(=O)N[C@@H](C)C(=O)N[C@@H](CCSC)C(=O)N[C@@H](CCSC)C(=O)N[C@@H](C)C(=O)N[C@@H](CCSC)C(=O)N[C@@H](CCC(=O)O)C(=O)N[C@@H](Cc1ccc(O)cc1)C(=O)N[C@@H](Cc1ccc(O)cc1)C(=O)N[C@@H](CCCNC(=N)N)C(=O)N[C@@H](CCC(N)=O)C(=O)N[C@@H](CO)C(=O)N[C@@H](CCCCN)C(=O)N[C@@H](C)C(=O)N[C@@H](CCCCN)C(=O)N[C@@H](CCCCN)C(=O)N[C@@H](CC(C)C)C(=O)N[C@@H](CCC(N)=O)C(=O)N[C@@H](C)C(=O)N[C@@H](CCSC)C(=O)N[C@@H](CCCNC(=N)N)C(=O)O  ΔS (CALM1 Ca2+-bound C-lobe; binding, isothermal titration calorimetry; pH 7.4, 15 °C, C-lobe, CaV2.1 IQ domain, added: Ca2+): 24 cal/mol/K
COc1c(C#N)cccc1CC(=O)Nc1ccc(N2CCc3sccc3C2)cc1  SPR response (WD repeat-containing protein 91 WD40 domain, residues 392–747; binding, SPR single-concentration screen; 45 µM): 1 RU and -3.6 RU
CN1[C@@H](CC(=O)c2ccccc2)CCC[C@H]1C[C@H](O)c1ccccc1.Cl  inhibition (Genome polyprotein NS3 helicase domain; DNA binding, inhibitor; hepatitis C virus; 100 µM, added: Cy5-dT15 DNA): 0%
C=CC(=O)N1CCC(COCC(=O)N2CCN(c3nc(-c4cnc(N)nc4C(F)F)nc(N4CCOC[C@@H]4C)n3)CC2)CC1  remaining binding (Serine/threonine-protein kinase Nek7 (NEK7, Homo sapiens, UniProt Q8TDX7); KINOMEscan; 1 µM): 89%
Nc1ncnc2c1ncn2[C@@H]1O[C@H](COP(=O)(O)CP(=O)(O)OP(=O)(O)O)[C@@H](O)[C@H]1O  specific binding (P2X purinoceptor 1 (P2RX1, Homo sapiens, UniProt P51575, E122A); saturation binding; HEK293; 52 nM): 594 CCPM and 606 CCPM and 372 CCPM
CC(C)(C)c1cc(/C=C(\C#N)C(N)=S)cc(C(C)(C)C)c1O  inhibition (Genome polyprotein NS3 helicase domain; DNA binding, inhibitor; hepatitis C virus; 100 µM, added: Cy5-dT15 DNA): 5%
CC(C)=CCc1cc(-c2coc3cc(O)ccc3c2=O)ccc1O  selectivity ratio (ESR1; array formation; PRL-HeLa; reference: EC50 ERβ over EC50 ERα): 97.5
COc1cc(-c2cncc3c2CN(C)Cc2cc(N4CCNCC4)ccc2-3)cc(OC)c1OC  remaining activity (Cyclin-dependent kinase 12, with cyclin K (CDK12, Homo sapiens, UniProt Q9NYV4); kinase activity; 1 µM, human enzyme, added: ATP 10 µM; reference: DMSO control): 123%
CC[C@@H]1[C@H](F)C(=O)N[C@@H]1COc1nccc2cc(C(N)=O)c(OC)cc12  inhibition (eIF-2-alpha kinase GCN2 (EIF2AK4, Homo sapiens, UniProt Q9P2K8); ATP-site probe binding, ActivX profiling, refers to: GCN2; THP-1 cell lysate; 0.04 mM, Lys2 site): 0.9%
COc1ccc(-c2cc(=O)c3c(O)cc(OC)cc3o2)cc1  selectivity ratio (ESR1; array formation; PRL-HeLa; reference: EC50 ERβ over EC50 ERα): 1.05
COc1ccc(C(=O)N[C@@H]2CCc3c(C#N)cccc32)cc1  binding (WD repeat-containing protein 91 WD40 domain, residues 392–747; SPR; 45 µM): 9% and 34%
NC(=O)c1cccnc1  product formation (N-alpha-acetyltransferase 80 (NAA80, Homo sapiens, UniProt Q93015); substrate, DTNB; 2 mM, 30 min, 37 °C, added: acetyl-CoA 500 µM): -2.63 µM
CN(C)CCOC(=O)COc1ccc(Cl)cc1  inhibition (Genome polyprotein NS3 helicase domain; DNA binding, inhibitor; hepatitis C virus; 100 µM, added: Cy5-dT15 DNA): 0%
CC[C@H](C)[C@H](NC(=O)[C@H](CCSC)NC(=O)[C@H](CCSC)NC(=O)[C@H](C)NC(=O)[C@H](C)NC(=O)[C@H](Cc1ccc(O)cc1)NC(=O)[C@@H](NC(=O)[C@H](CCCCN)NC(=O)CNC(=O)[C@@H](NC(=O)[C@@H](NC(=O)[C@H](CCSC)NC(=O)[C@H](Cc1c[nH]cn1)NC(=O)CN)[C@@H](C)O)C(C)C)[C@@H](C)CC)C(=O)N[C@@H](C)C(=O)N[C@@H](CCC(=O)O)C(=O)N[C@@H](Cc1ccc(O)cc1)C(=O)N[C@@H](Cc1ccc(O)cc1)C(=O)N[C@@H](CCCNC(=N)N)C(=O)N[C@@H](CCC(N)=O)C(=O)N[C@@H](CO)C(=O)N[C@@H](CCCCN)C(=O)N[C@@H](C)C(=O)N[C@@H](CCCCN)C(=O)N[C@@H](CCCCN)C(=O)N[C@@H](CC(C)C)C(=O)N[C@@H](CCC(N)=O)C(=O)N[C@@H](C)C(=O)N[C@@H](CCSC)C(=O)N[C@@H](CCCNC(=N)N)C(=O)O  ΔS (CALM1 Ca2+-bound C-lobe; binding, isothermal titration calorimetry; pH 7.4, 15 °C, C-lobe, CaV2.1 IQ domain, added: Ca2+): 10.4 ± 0.6 cal/mol/K
COc1cc(/C=C/c2cc(/C=C/c3ccc(O)c(OC)c3)n(-c3ccc(Cl)cc3Cl)n2)ccc1O  ΔH (haemin; binding, isothermal titration calorimetry; pH 7.4, 37 °C): -23.69 ± 0.196 kcal/mol
CC[C@H](C)[C@H](NC(=O)[C@H](CCCCN)NC(=O)CNC(=O)[C@@H](NC(=O)[C@@H](NC(=O)[C@H](CCSC)NC(=O)[C@H](Cc1c[nH]cn1)NC(=O)CN)[C@@H](C)O)C(C)C)C(=O)N[C@@H](Cc1ccc(O)cc1)C(=O)N[C@@H](C)C(=O)N[C@@H](C)C(=O)N[C@@H](C)C(=O)N[C@@H](CCSC)C(=O)N[C@H](C(=O)N[C@@H](CCSC)C(=O)N[C@@H](CCC(=O)O)C(=O)N[C@@H](Cc1ccc(O)cc1)C(=O)N[C@@H](Cc1ccc(O)cc1)C(=O)N[C@@H](CCCNC(=N)N)C(=O)N[C@@H](CCC(N)=O)C(=O)N[C@@H](CO)C(=O)N[C@@H](CCCCN)C(=O)N[C@@H](C)C(=O)N[C@@H](CCCCN)C(=O)N[C@@H](CCCCN)C(=O)N[C@@H](CC(C)C)C(=O)N[C@@H](CCC(N)=O)C(=O)N[C@@H](C)C(=O)N[C@@H](CCSC)C(=O)N[C@@H](CCCNC(=N)N)C(=O)O)[C@@H](C)CC  stoichiometry (CALM1 Ca2+-bound C-lobe; binding, isothermal titration calorimetry; pH 7.4, 15 °C, Ca2+-bound C-lobe, added: CaV2.1 IQ peptide): 0.93 ± 0.23
CCN(CCO)CCCC(C)Nc1ccnc2cc(Cl)ccc12 (centres unmarked)  half-inactivation voltage (V1/2) (Sodium channel protein type 5 subunit alpha (SCN5A, Homo sapiens, UniProt Q14524); sodium current, whole-cell patch clamp; 10 µM, without ATX-II): -75.8 mV and -83.7 mV and -92 mV
CCCCC[C@H](CC(=O)NO)C(=O)N[C@H](C(=O)N1CCC[C@H]1CO)C(C)C  inhibition (Genome polyprotein NS3 helicase domain; DNA binding, inhibitor; hepatitis C virus; 100 µM, added: Cy5-dT15 DNA): 0%
N#CC1CCN(C(=O)c2ccc(CCc3ccccc3)cc2)CC1  binding (WD repeat-containing protein 91 WD40 domain, residues 392–747; SPR; 45 µM): -3% and -12%
NCCS(=O)(=O)O  normalised MST signal (Sodium- and chloride-dependent taurine transporter (SLC6A6, Homo sapiens, UniProt P31641, S402A); binding, microscale thermophoresis; 31.3 µM, room temperature, added: 50 nM labelled protein; higher = more binding): 0.0273
Cc1nc(CSc2nc(SCc3ccc(C(C)C)cc3)nc(=O)[nH]2)cs1  mean relaxed DNA (DNA topoisomerase 2-alpha (TOP2A, Homo sapiens, UniProt P11388); DNA relaxation; 62.5 µM): 99.6%
CCCCCCc1ccc([C@H]2CC[C@H]([N+](C)(C)CCC)CC2)cc1.[I-]  Ki/Km ratio (Sphingosine kinase 1 (SPHK1, Homo sapiens, UniProt Q9NYA1); inhibitor, radiometric flash-plate; cell lysate; added: sphingosine 10 µM): 3.5
CCN(CC)CCOC(=O)c1ccc(N)cc1  inhibition (Genome polyprotein NS3 helicase domain; DNA binding, inhibitor; hepatitis C virus; 100 µM, added: Cy5-dT15 DNA): 0%
O=C(O)[C@@H]1CCCN1  delta Tm (Methyl-accepting chemotaxis protein, ligand-binding domain (Pectobacterium atrosepticum, UniProt Q6D515); binding): binds
CC(=O)N[C@@H](CC(N)=O)C(=O)N[C@@H](CC(C)C)C(=O)NCC(=O)N[C@@H](CCCCN)C(=O)N[C@@H](Cc1c[nH]cn1)C(=O)N[C@@H](CCC(=O)O)C(=O)N[C@@H](CCCCN)C(=O)N[C@@H](Cc1ccccc1)C(=O)N[C@@H](CO)C(=O)N[C@@H](CCC(=O)O)C(=O)N[C@H](C(=O)N[C@@H](CC(C)C)C(=O)N[C@@H](CCCCN)C(=O)N[C@@H](CCCNC(=N)N)C(=O)N[C@@H](CC(C)C)C(=O)N[C@@H](CCCNC(=N)N)C(=O)N[C@@H](CC(C)C)C(=O)N[C@@H](CCC(N)=O)C(N)=O)C(C)C  binding stoichiometry (Calmodulin-1, N-lobe fragment (CALM1, Homo sapiens, UniProt P0DP23); ITC; concentration not given, N-lobe, added: 1 mM CaCl2): 0.99
